Measured values gathered from unrelated publications.
Each numbered part is a random draw from the data of one study; scales do not carry over between parts. Changes are numbered by the printed parent chain.

Study 1 — target: UBE2Q2 UBC core domain (UniProt Q8WVN8); method: yeast two-hybrid; medium: yeast; setting: mostly zero background; baseline: not given; reading: higher = stronger interaction; endpoint: lacZ reporter activity
Sequence of UniProt Q8WVN8 (whole entry, looked up): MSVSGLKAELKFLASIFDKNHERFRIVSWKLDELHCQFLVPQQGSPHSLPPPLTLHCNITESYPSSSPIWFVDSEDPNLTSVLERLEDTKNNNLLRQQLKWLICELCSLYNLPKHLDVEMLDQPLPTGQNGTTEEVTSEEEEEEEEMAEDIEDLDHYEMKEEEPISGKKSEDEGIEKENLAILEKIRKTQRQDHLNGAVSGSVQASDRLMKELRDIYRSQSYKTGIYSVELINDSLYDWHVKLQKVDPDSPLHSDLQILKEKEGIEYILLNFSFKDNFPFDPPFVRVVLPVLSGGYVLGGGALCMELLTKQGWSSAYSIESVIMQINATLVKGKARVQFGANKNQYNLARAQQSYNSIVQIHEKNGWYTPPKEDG
B1: TRIM68 RING domain (UniProt Q6AZZ1); chain LVEAIVEEVACPICMTFLREPMSIDCGHSFCHSCLSGLWEIPGESQNWGYTCPLCRAPVQPRNLRP
B2: RNF32 RING domain (UniProt Q9H0A6); chain VQALRRETHECSICLAPLSAAGGQRVGAGRRSREMALLSCSHVFHHACLLALEEFSVGDRPPFHACPLCRSCYQKKILEC
B3: RNF130 RING domain (UniProt Q86XS8); chain DKETDPDFDHCAVCIESYKQNDVVRILPCKHVFHKSCVDPWLSEHCTCPMCKLNILKALGIV
B4: RFPL3 RING domain (UniProt O75679); chain MAALFQEASSCPVCSDYLEKPMSLECGCTVCLKCINSLQKEPHGEDLLCCCCSMVSQRNKIRP
B5: MDM2 RING domain (UniProt Q00987); chain TQDKEESVESSLPLNAIEPCVICQGRPKNGCIVHGKTGHLMACFTCAKKLKKRNKPCPVCRQPIQMIVLTYFP
B6: TRIM28 RING domain (UniProt Q13263); chain GAEALELLEHCGVCRERLRPEREPRLLPCLHSACSACLGPAAPAAANSSGDGGAAGDGTVVDCPVCKQQCFSKDIVE
B7: TRIM34 RING domain (UniProt Q9BYJ4); chain ILLNVQEEVTCPICLELLTEPLSLDCGHSLCRACITVSNKEAVTSMGGKSSCPVCGISYSFEHLQA
Molecule = B1 (TRIM68 RING domain); value = 0
Molecule = B2 (RNF32 RING domain); value = 0
Molecule = B3 (RNF130 RING domain); value = 0
Molecule = B4 (RFPL3 RING domain); value = 0
Molecule = EDVLSKDAGECAICLEELQQGDTIARLPCLCIYHKGCIDEWFEVNRSCPEHPSD (ZNRF2 RING domain (UniProt Q8NHG8)); value = 0
Molecule = FLSKVEETFQCICCQELVFRPITTVCQHNVCKDCLDRSFRAQVFSCPACRYDLGRSYAMQ (UHRF1 RING domain (UniProt Q96T88)); value = 0
Molecule = B5 (MDM2 RING domain); value = 0
Molecule = B6 (TRIM28 RING domain); value = 0
Molecule = B7 (TRIM34 RING domain); value = 0
Molecule = PLRRLQEEKLCKICMDRHIAVVFIPCGHLVTCKQCAEAVDRCPMCSAVIDFKQRVF (BIRC8 RING domain (UniProt Q96P09)); value = 0

Study 2 — method: RNAcompete; form: RNA; medium: in vitro; concentration: 20 nM; setting: 7-mer, probes averaged, single round; baseline: mean of 7-mers; reading: higher = stronger binding; endpoint: 7-mer Z-score
Target: PABPC1L2, full length, GST fusion (mouse, UniProt A0ABA7IW68)
Construct (chain): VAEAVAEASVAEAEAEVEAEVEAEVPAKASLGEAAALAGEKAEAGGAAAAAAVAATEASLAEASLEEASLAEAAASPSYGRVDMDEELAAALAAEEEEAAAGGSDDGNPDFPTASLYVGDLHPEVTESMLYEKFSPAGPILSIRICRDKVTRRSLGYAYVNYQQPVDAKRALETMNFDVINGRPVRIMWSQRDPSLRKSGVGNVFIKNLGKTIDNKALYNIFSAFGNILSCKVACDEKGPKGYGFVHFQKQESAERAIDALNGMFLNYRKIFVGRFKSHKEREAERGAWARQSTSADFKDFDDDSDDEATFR
Strand = UUGUCCU; value = -0.421
Strand = UGCAGAU; value = -0.101
Strand = AUUAUUA; value = -0.19
Strand = UCAAGUU; value = -0.344
Strand = CCUCAAG; value = -0.302
Strand = GAAACAA; value = 2.53
Strand = CGCGUAC; value = -0.211
Strand = AAACUCU; value = 0.265
Strand = GUAUGCG; value = -0.0971
Strand = CGUUGGA; value = 0.0569
Strand = CGGGAAG; value = -0.0428
Strand = AAGCUCG; value = -0.0772
Strand = GCGCUGA; value = -0.0899
Strand = CAACGCC; value = -0.115
Strand = AGCGCUG; value = -0.17
Strand = CAAACGG; value = 0.196
Strand = CUUUGAG; value = -0.0464
Strand = CGGGCAA; value = 0.349
Strand = ACCGGAC; value = -0.119
Strand = GGCUGCG; value = 0.0696
Strand = CUACUCA; value = -0.195
Strand = GCCGGGC; value = -0.0591
Strand = AAUUAGC; value = 0.175

Study 3 — method: RNA Bind-n-Seq; form: RNA; medium: in vitro; concentration: not given; baseline: input RNA pool; reading: higher = stronger binding; endpoint: bound/input enrichment
Target: RING finger protein unkempt homolog, zinc fingers 1-6, GST-SBP tag (UNK, Homo sapiens, UniProt Q9C0B0, residues 30-357)
Setting: RNA with constant flanks, human-mouse chimeric sites, ends assumed
Shared flanks, not repeated: GGGAGUUCUACAGUCCGACGAUC … CAACAGAGGAUUGAGCAUCA
Residues (chain): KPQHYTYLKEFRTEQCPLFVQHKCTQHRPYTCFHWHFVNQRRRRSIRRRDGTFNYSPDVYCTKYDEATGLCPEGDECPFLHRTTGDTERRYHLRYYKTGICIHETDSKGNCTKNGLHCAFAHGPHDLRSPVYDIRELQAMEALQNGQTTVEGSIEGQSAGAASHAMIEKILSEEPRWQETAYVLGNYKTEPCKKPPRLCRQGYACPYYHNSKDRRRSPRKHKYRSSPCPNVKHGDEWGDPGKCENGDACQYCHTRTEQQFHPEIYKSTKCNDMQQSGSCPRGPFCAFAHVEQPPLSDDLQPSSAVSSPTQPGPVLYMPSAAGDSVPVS
Strand = AGAGAUAAAGCAUCUAGGAACAUGCGAGGCUCCCGGAUGAAUGGGUUGCCUAGCCCCACUCACAGCGCCCACUGUAGCUUCUACAGAACCAGAACCUUGCAGGCACUGAGUAAUGAGAAG; value = 0.114 ratio
Strand = UUGAAAAACACAGAUAUCAAAGUUGUUGACUUUGGAAGUGCAACGUAUGAUGAUGAACAUCAUAGUACUUUGGUGUCUACCCGGCACUACAGAGCUCCCGAGGUCAUUUUGGCUUUAGGU; value = 0.481 ratio
Strand = CAGUCCCCGUGUCCCAGUGCAGGACGAUGUGAACAAAAACUCAAAGCGGACCCUCUAUUGUAGUUCUUUUUUUAAAUAAUGUGCUAUUAUUGUUUGUCUUUUUUUUUAAAAGAAAAGAGA; value = 0.878 ratio
Strand = AACAGAUUGUCUUUAAGCAUUCCAAGCGAGAAUGCUGGGGUGAUCAUUGUUGCCCAUAUAUAGUAAUUAAUAGAUGGAAUGCUGUUCCAUGUUACAUCUUUCCUUCACUCCAGAAUUGUU; value = 2.94 ratio
Strand = AAAGAGUGGAUAGAGUGUGCACACGGGAUCGGUGGGACUCGGGCAGAAAAGGAGUGCAAGAUAGAGUUCGAUGACUUCGAAGAGUGCUUGCUUCGGUACAAAACGAUGAGACGUGCACAU; value = 0.241 ratio
Strand = CAGUCCCCGUGUCCCAGUGCAGGACGAUGUGAACAAAAACUCAAAGCGGACCCUCUAUUGUAGUUCUUGAUUCUCGAAAUGUGCUAUUAUUGUUUGUAAAAAAGGAAUUUUUUUUAAAGA; value = 0.225 ratio
Strand = AUUGUUGAAGCGAAUCCACUCCUAGAAGCAUUUGGAAAUGCAAAGACUGUUCGCAACAAUAAUAGCAGUCGAUUUGGGAAAUUUGUAGAAAUUCAUUUCAAUGAAAAGAGUUCGGUUGUU; value = 0.263 ratio
Strand = UAAGUCCUGUGCCAGCACUUCGCUCAUAAAGUUUUAAAUUCUGGACCAAUAGUGUUUAUCUUUAGAAUAUUGUAUCCAAUACUUUGCCUAGUAUGUAACUCACUCUUCUGGAUAAAUAAA; value = 22.4 ratio
Strand = AGGAGGAGGUUAAAGGGUGAGAGUGGGGUGGAAGACUGUGUCAUGGCCCUAGAAACCCUGUUCAGUGUCCUGCUUUCUCUGUGCAGACUGAUGGCCCCUUACACGCCUUUUCUCACUGAG; value = 0.0508 ratio
Strand = UACUCAACUUUCUUGCCACAUUUUGAAUUCCAAGAUGUUAUUCCUCCAGAUGACUUUCUAACGAGUGAUGAAGAGCAAGAUUUGGUUUUAUUUGGAACUAUGAGAGGACAAGUUGUUGGA; value = 0.167 ratio
Strand = CGCUGGCCCAAGCUGAUGGACUCUGAUCUUGAUCUCUUCUCAGGCACGUGUGCCUUCUCUUAGUCCCUGUUUUCGGGAUGUUAUGAAUCUCAGUACUGUUUGACAGAAGCACCAGCUUUG; value = 0.177 ratio

Study 4 — method: RNA Bind-n-Seq; form: RNA; medium: in vitro; concentration: 200 nM; setting: whole 134-nt RNA, ends assumed; together with: 150 mM KCl; baseline: input library; reading: higher = stronger binding; endpoint: log2 enrichment
Target: Fragile X messenger ribonucleoprotein 1, C-terminal low-complexity region (Fmr1, Mus musculus, UniProt P35922)
Shared flanks, not repeated: GGGAGUUCUACAGUCCGACGAUC … UGGAAUUCUCGGGUGUCAAGG
Strand = GCAGGAAGUAAAAACAAAUGGAAAUGCUUCGGAUAGUGGCAGGGGUGGGGGUUGCUAAGGAAAGGGUGGGAUGGGAGUGGGCAAAGAGUU; value = 0.24
Strand = UGGGAGGUGGAUUUUGUUUAUUUUUUUAGCUCAUUUCCAGGGGUGGGAAUUUUUUUUUAAUAUGUGUCAUGAAUAAAGUUGUUUUUGUAA; value = 0.398
Strand = GCAGGAAGUAAAAACAAAUGGAAGUGCUUCGGAUAGUGGCAGGGGUGGGGGUUGCUAAGGAAAGGGUGGGAUGGGAGUGGGUAAAGAGUU; value = 0.596
Strand = UGCCGUGCCGGGUGGACGGUCUGCUCGCCUGUCUGCGUGACGAAACUGAGGCACAAAGACGCGCUAUGCCAGCGGCGGGUAUAGCAAGGG; value = -0.637
Strand = ACCUUGCAGGUGGGCAUCUUUGGGAAGUGGGGCAAGGGGGGGAUAGGGAGGGGGGUAACACUUUGGGAACAGGUGGUCCCAGGUCGUUUC; value = 0.794
Strand = CAAGUCCUGUGCUACACAUCGUAUGUACCGAAUCGGUUUGGUUUGGUUUUUUUGGAAAGUAUUAUGUUACGCCGUUCGGAUCUGCACUUC; value = -0.629
Strand = AAGUCCUGUGCUACACAUCGUAUGUACCGAAUCGGGGAGGGGUGGGGUUUUUGGGGAAAGUAUUAUGUUACGCCGUUCGGAUCUGCACUU; value = 0.867
Strand = UGCUCUCCGUGCCACAUGCGCCCGCAGGUUACGCCAAGGAGGCCCUGAAUCUGGCGCAGAUGCAGGAGCAGACGCUGCAGUUGGAGCAAC; value = -2.42
Strand = UGCUGUUCAGGUGGUGGAGAAGAAGAUGGAACCCCAGGCUGCCUGGCUACAGAGCCUGGAGGGAUGCAUGUGGACAGCCAAGAAGAAGCU; value = -1.76
Strand = AGUCCUGUGCUACACAUCGUAUGUACCGAAUCAAAUUUAAAUUUAAACCCCCCCAAAAAAGUAUUAUGUUACGCCGUUCGGAUCUGCACU; value = 0.249
Strand = CAAAAACAACACGCACCCACACAGACACAGAGGGAAGGGGUUGGGAUGGGGACAGGGUGCACAGCAGGGCGGGGUAGGACCCCAGCCCCU; value = 1.33
Strand = CCUGUGCUACACAUCGUAUGUACCGAAUCGGGGCCCCCCGGGCCCCCCGGGGCCCCCCGGGAAAGUAUUAUGUUACGCCGUUCGGAUCUG; value = -1.02
Strand = CCUCAAGUCCUGUGCUACACAUCGUAUGUACCGAAUCGGGUGGGAGGGAGGGAAAGUAUUAUGUUACGCCGUUCGGAUCUGCACUUCCAG; value = 1.51
Strand = AAGUCCUGUGCUACACAUCGUAUGUACCGAAUCGGUUUUGGGGUUUUGGUUUUGGGAAAGUAUUAUGUUACGCCGUUCGGAUCUGCACUU; value = -0.507

Study 5 — target: CCNB3, cyclin fold, Cln2 fusion (human); method: yeast growth competition, sequencing; medium: yeast; setting: weak parent motif; baseline: not given; reading: higher = stronger binding; endpoint: normalised enrichment score
Starting sequence: CDKN1A docking peptide (human); SKACRRLFGPVDS
Variant = G9E; value = 0.351
Variant = D12I; value = 0.582
Variant = V11G; value = 0.513
Variant = L7F; value = 0.0634
Variant = V11N; value = 0.633
Variant = D12R; value = 0.293
Variant = R6V; value = 0.818
Variant = K2G; value = 0.72
Variant = C4I; value = 0.652
Variant = R5E; value = -0.209
Variant = A3T; value = 0.534
Variant = C4Y; value = -0.0164
Variant = F8Q; value = -0.189

Excerpt of the above (study 5):
Variant = D12I; value = 0.582
Variant = V11G; value = 0.513
Variant = L7F; value = 0.0634
Variant = V11N; value = 0.633
Variant = D12R; value = 0.293
Variant = R6V; value = 0.818
Variant = K2G; value = 0.72
Variant = C4I; value = 0.652
Variant = R5E; value = -0.209
Variant = A3T; value = 0.534
Variant = C4Y; value = -0.0164
